# Published values from different studies.
# Lines come from different studies, so protocols differ.
# Organism: Human alphaherpesvirus 1
SMILES,assay,test system,conditions,scale,endpoint,result
CC(=O)OC[C@H]1O[C@@H](Sc2sc(C(=O)c3ccc(Br)cc3)c(N)c2-c2nc3ccccc3s2)[C@H](OC(C)=O)[C@@H](OC(C)=O)[C@@H]1OC(C)=O,plaque formation,HSV-1,,,IC50,0.55 µg/mL
Cc1ccc(S(=O)(=O)Nn2c3c(cc(-c4nc5ccccc5s4)c2=O)CCCCCC3)cc1,"viral replication, plaque reduction",Vero cells,,baseline: CC50 over IC50,selectivity index,3.06
Cc1ccc(O)c(C=NNC(=N)NO)n1,plaque formation,Vero,96 h,,IC50,38 µM
CC(=O)O[C@@H]1[C@@H](OC(C)=O)[C@H](Sc2sc(C(=O)c3ccc(Br)cc3)c(N)c2-c2nc3ccccc3s2)OC[C@H]1OC(C)=O,plaque formation,HSV-1,,,IC50,0.57 µg/mL
O=c1c(-c2nc3ccccc3s2)cc2c(n1NS(=O)(=O)c1ccc(Cl)cc1)CCCCCC2,"viral replication, plaque reduction",Vero cells,,,IC50,89 µg/mL
C=C(C)[C@@H]1CCC=C2CC[C@]3(C)[C@H](CC[C@@H]4[C@@]5(C)CCCNC(C)(C)[C@@H]5CC[C@]43C)[C@H]21,cytopathic effect,"HFF, E-377",,,EC90,> 6 µM
N=C(NO)NN=Cc1ccc2ccccc2n1,plaque formation,Vero,96 h,,IC50,23.5 µM
C=C(C)[C@@H]1CC[C@]2(CO)CC[C@]3(C)[C@H](CC[C@@H]4[C@@]5(C)CCCNC(C)(C)[C@@H]5CC[C@]43C)[C@@H]12,cytopathic effect,"HFF, E-377",,,EC50,> 6 µM
N=C(NO)NN=Cc1cccc(Cl)n1,plaque formation,Vero,96 h,,IC50,> 100 µM
C[C@H]1[C@H](C)CC[C@]2(CO)CC[C@]3(C)C(=CC[C@@H]4[C@@]5(C)CCCNC(C)(C)[C@@H]5CC[C@]43C)[C@H]12,cytopathic effect,"HFF, E-377",,,EC90,> 6 µM
C=CC1CN(C(=O)NCC=CCSSSCC=CCNC(=O)N2CC(C=C)OC2=S)C(=S)O1 (centres unmarked),viral replication,HSV-1,,,IC50,2.87 µM

# A few entries again:
SMILES,assay,test system,conditions,scale,endpoint,result
Cc1ccc(O)c(C=NNC(=N)NO)n1,plaque formation,Vero,96 h,,IC50,38 µM
